# Measurements collected from several papers.
# Parts stem from different laboratories: compare values within a part only.

# Study 1 — technique: RNA Bind-n-Seq; form: RNA; medium: in vitro; tested at: 365 nM; baseline: no-protein control; direction: higher = stronger binding
# Target: RNA binding protein fox-1 homolog 2, RRM domain, GST-SBP tag (RBFOX2, Homo sapiens, UniProt O43251-10, residues 100-194)
# Setting: natural RNA segment, single round, ends assumed
# All sequences stand within: GGGAGUUCUACAGUCCGACGAUC … UGGAAUUCUCGGGUGCCAA
# Target sequence (chain): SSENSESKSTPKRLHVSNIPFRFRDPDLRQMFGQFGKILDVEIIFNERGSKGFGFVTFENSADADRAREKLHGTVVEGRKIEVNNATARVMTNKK
Strand,RBNS enrichment (R)
CAACUCUAAAGAAAGGUCUCAGGUUACACAGGCCCCCCCACUUAUGUUUUCAGGGGAUGCCAUUUAUCCCAAGCUUAUCCUGUAAUUCUAGAAUGACUUGGUGUCCUGAU,0.797
CAUUUAUCAUUGAUUUACCUAAUGUUACCUUGUAGAUUAAACACUAUUAAGUGGUAAUACUUGAAAAGGAGCACUUAUACCAUAAGUCUUAGGAAAUAAUGUUUGUAAUA,0.613
AGAGGCCUUUAGUCUAGAUUCUGCCAGCUGUGCCACACUCUGCACUAAAGAUAUCAGAGCUCUUAGUGUUACUUAGAGGAGAGUACAAGCAAGUCGGACCUCUCAGAACU,0.315
AUUGAGUAUAUGUUUACUCUGGGCCUGGGAGAACUUAACUUUCUAGAGCAGUUUGUUGACUUGUGUGCAAUGGGGAGAGGUACCAUGAUGACACUCACAGGGAGCCACUG,5.98
GUGGCAGUAAAGAGAAACUUUGCUACACAACAAAAAGCUGCUAAAUCUCCCUCUAUUUUUUUAAAAUCACUAACAUUAUAUUGCAAUGAGAGAAAUUUUAAAAAGUCUCU,0.319
AUAUACAAACAUGUAUGUAUACAUGACCUUAAUGGAUCAUAGAAUUGCAGUCAUUUGGUGCUCUGCUAACCAUUUAUAUAAAACUUAAAAACAAGAGAAAAGAAAAAUCA,0.418
UUUGUGGAUGUGCAGAACUGCAUGAGCCGUGAGCAGAGCCACCGAGGCCCCCUGCAGGAGGUCCGCUGCAGAUGGCACUGCCCUUCCUUCAGGUCAGGUGGCCCACCACC,4.19
CUAAGCGCUGACCGUGAACUCUGCCCUUGAUGGCGCUAAGCUGUCUGGACAGUGCGGUUACAAGCAUUAGUGAGUGUCCUGCUCCACGCCUGUGUGAACCAGGCACAGGA,0.222

# Study 2 — technique: protein-binding microarray; form: hairpin DNA; medium: in vitro; tested at: not given; baseline: not given; direction: higher = stronger binding; all sequences stand within: GAGGCCA … TGGCCTCACACTC
# Target: Homeobox protein Hox-C11, full length (HOXC11, Homo sapiens, UniProt O43248, residues 1-304)
# UniProt O43248, sequence (whole entry, looked up): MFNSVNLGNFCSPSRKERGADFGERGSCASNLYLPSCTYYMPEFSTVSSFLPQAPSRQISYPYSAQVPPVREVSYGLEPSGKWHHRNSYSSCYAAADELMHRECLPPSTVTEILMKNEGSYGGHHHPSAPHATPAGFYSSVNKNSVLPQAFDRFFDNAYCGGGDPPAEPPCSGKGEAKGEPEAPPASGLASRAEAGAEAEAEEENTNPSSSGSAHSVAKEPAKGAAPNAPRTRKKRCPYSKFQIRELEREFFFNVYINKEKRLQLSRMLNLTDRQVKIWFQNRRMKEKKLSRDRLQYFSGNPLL
# Setting: whole hairpin DNA, median over replicate spots
Strand,median fluorescence
GGCGGTTAAAGCCTCCTGGCTTTAACCGCC,10200 a.u.
GGTCGTTAAGGCCTCCTGGCCTTAACGACC (5mC at 28),10600 a.u.
GGTCGTCGAAGCCTCCTGGCTTCGACGACC (5mC at 30),11100 a.u.
GGTCGTAGAAGCCTCCTGGCTTCTACGACC (5mC at 30),10900 a.u.
GGTCGTAGAAGCCTCCTGGCTTCTACGACC,10600 a.u.
GGTCGTTAAAGCCTCCTGGCTTTAACGACC (5mC at 11),10400 a.u.
GGCGGTTAAAGCCTCCTGGCTTTAACCGCC (5mC at 34),9470 a.u.
GGCGGTAAAAGCCTCCTGGCTTTTACCGCC (5mC at 10 34),9300 a.u.
GGTCGTGAAAGCCTCCTGGCTTTCACGACC (5mC at 31),10900 a.u.
GGGCGTAAAAGCCTCCTGGCTTTTACGCCC (5mC at 35),10000 a.u.
GGTCCGTAAAGCCTCCTGGCTTTACGGACC,9460 a.u.
GGTCGTACAAGCCTCCTGGCTTGTACGACC (5mC at 15),9710 a.u.
GGTCGTCAAAGCCTCCTGGCTTTGACGACC,10700 a.u.
GTTCGTAAAAGCCTCCTGGCTTTTACGAAC,8660 a.u.
GCTCGTAAAAGCCTCCTGGCTTTTACGAGC,9520 a.u.
TGTCGTAAAAGCCTCCTGGCTTTTACGACA,9290 a.u.
GGTCGTTGAAGCCTCCTGGCTTCAACGACC,10400 a.u.
GCGCGTTAAAGCCTCCTGGCTTTAACGCGC (5mC at 9),9100 a.u.
GGTCGGTAAAGCCTCCTGGCTTTACCGACC,10700 a.u.

# Study 3 — technique: aptamer microarray, sandwich; form: DNA with 2'F-ANA; medium: in vitro; tested at: 200 nM; together with: Cy3 exosite-II aptamer, 400 nM; direction: higher = stronger binding; strand: GGTTGGTGTGGTTGG
# Target: Prothrombin, mature alpha-thrombin (F2, Homo sapiens, UniProt P00734)
# Setting: whole 15-mer aptamer, many near background
Modification,mean fluorescence intensity
2'F-ANA at 3 5 9 10 12,71.1 a.u.
2'F-ANA at 1 2 3 4 9 11 12 13 14,72.1 a.u.
2'F-ANA at 1 2 5 7 8 9 11 13 15,50.4 a.u.
2'F-ANA at 3 5 6 7 8 9 10 11 12 15,61.7 a.u.
2'F-ANA at 4 5 6 9 10 11 14,45.6 a.u.
2'F-ANA at 1 3 4 6 8 9 10 12 13,95 a.u.
2'F-ANA at 1 2 4 5 7 8 9 11 12 14 15,50.3 a.u.
2'F-ANA at 4 5 6 8 9 13 14,48.3 a.u.
2'F-ANA at 2 4 5 6 8 11 13 15,70.4 a.u.
2'F-ANA at 2 3 5 13 14,49.2 a.u.
2'F-ANA at 2 3 4 11 12 13 15,584 a.u.
2'F-ANA at 2 4 8 9 11 12 13 15,313 a.u.
2'F-ANA at 1 3 5 6 9 12 15,119 a.u.
2'F-ANA at 3 6 9 10 12 14 15,359 a.u.
2'F-ANA at 1 2 6 8 11 12 15,270 a.u.
2'F-ANA at 2 3 5 8 9 10 12 15,59.5 a.u.
2'F-ANA at 1 2 6 7 10 12 13 15,65.4 a.u.
2'F-ANA at 5 6 7 9 10 12 13 14 15,47 a.u.
2'F-ANA at 1 2 3 5 7 10 12 14 15,53.8 a.u.
2'F-ANA at 1 2 3 4 5 6 7 9 10 12,53.4 a.u.
2'F-ANA at 2 3 4 7 8 11 13,525 a.u.
2'F-ANA at 8 11,588 a.u.
2'F-ANA at 1 3 4 6 7 10 11 12 15,71.6 a.u.

# Study 4 — technique: RNA Bind-n-Seq; form: RNA; medium: in vitro; tested at: not given; baseline: input RNA pool; direction: higher = stronger binding
# Target: RING finger protein unkempt homolog, zinc fingers 1-6, GST-SBP tag (UNK, Homo sapiens, UniProt Q9C0B0, residues 30-357)
# UniProt Q9C0B0, sequence (30-357, looked up): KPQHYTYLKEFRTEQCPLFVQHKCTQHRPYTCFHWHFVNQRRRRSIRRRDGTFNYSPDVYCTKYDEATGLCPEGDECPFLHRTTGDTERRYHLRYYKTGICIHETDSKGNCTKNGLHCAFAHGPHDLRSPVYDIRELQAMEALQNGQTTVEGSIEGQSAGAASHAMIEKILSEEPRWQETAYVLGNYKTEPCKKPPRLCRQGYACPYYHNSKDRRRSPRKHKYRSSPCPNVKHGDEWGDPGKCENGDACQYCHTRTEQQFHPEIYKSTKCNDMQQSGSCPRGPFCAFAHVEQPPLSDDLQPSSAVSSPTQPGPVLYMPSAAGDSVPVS
# Setting: RNA with constant flanks, human and mouse sites, ends assumed
# All sequences stand within: GGGAGUUCUACAGUCCGACGAUC … CAACAGAGGAUUGAGCAUCA
Strand,bound/input enrichment [ratio]
AAGAAAAAGAAAAUGCCGAAGCCAAUCAAUGUAAGAGUAACUACAAUGGACGCUGAGCUAGAAUUUGCCAUCCAGCCCAAUACAACUGGCAAACAACUUUUUGACCAGGUUGUAAAAACA,0.354
UACGUGUGCCAGAGACUGGGUGUCAGCCAUAUCAUCACCGAGCCCAAAGAAGAGGCCAUUAGCACAAAUGAAGUCAUAAACCAGUUACUGCACCAUGUUGGCGCCAUGUGCAUUCACCAG,0.467
GCUGGUGACUGGAAGUGUCCUAAUCCCACCUGUGAGAAUAUGAACUUCUCUUGGAGGAAUGAAUGCAACCAGUGUAAGGCCCCUAAACCAGAUGGCCCAGGAGGGGGACCAGGUGGCUCU,0.233
CCAGGCCAAGACCAUGUUGACGUGAGCAUCCAGCUCCUCUUAAAAAGCGGCAGUGUCUUCCUCACCUCCCACCAGUAUCCCUUCUAUGACUGCCGUGAGGCCAUGAGCCUGGUGGAGAAC,0.281
ACCUCCCAAGUCCUGUAUGAGUGGGAACAGGGAUUUUCUCAGUCCUUCACUCAAGAACAAGUAGCUGAUAUUGAUGGACAGUAUGCAAUGACUCGAGCUCAGAGGGUACGAGCUGCUAUG,0.156
CGUACAACUAGAGGAAAGCGGAAGAGGGUUGAUGUGGAAGAAUCAGAGGCGAGUAGUAGUGUUAGCAUCUCUCAUUCCGCCUCAGCCACUGGAAAUGUUUGCAUCGAAGAAAUUGAUGUU,1.02
GAGAUUGUCUUCCAGGGCUAGCAAUUGGACUUUUGAUGAUGUUUGACCCAGCGGCAGGAAUAGCAGGCAACGUGAUUUCAAAGCUGGGCUCAGCCUCUGUUUCUUCUCUCGUGUAAUCGC,0.178
AACCUUCAACAGUAGAAGUUCUAGAAAAUAUAGAUAAGGAAAUUCAAGCAUUGGAAGAAUUUAGAGAAAAAAAUCAGAGAUUGCAAAAAUUAUGGGUUGGAAGAUUAAUUAUCUAUUCUU,22.8

# Excerpt of the above (study 2):
Strand,median fluorescence
GGTCGTCGAAGCCTCCTGGCTTCGACGACC (5mC at 30),11100 a.u.
GGTCGTAGAAGCCTCCTGGCTTCTACGACC (5mC at 30),10900 a.u.
GGTCGTAGAAGCCTCCTGGCTTCTACGACC,10600 a.u.
GGTCGTTAAAGCCTCCTGGCTTTAACGACC (5mC at 11),10400 a.u.
GGCGGTTAAAGCCTCCTGGCTTTAACCGCC (5mC at 34),9470 a.u.
GGCGGTAAAAGCCTCCTGGCTTTTACCGCC (5mC at 10 34),9300 a.u.
